Assay results gathered from unrelated publications.
Compare with care: the assays were run in different laboratories. “And” joins repeats or separate records; there may be more than shown. ± marks the error that the study gave.

Structure (SMILES)	test	system	setting	how to read	quantity	value
[11CH3]N1CCC(NC(=O)c2cc(-c3c(O)cc(O)cc3Oc3ccc([N+](=O)[O-])cc3)on2)CC1		Wistar rat, female, healthy, spleen	intravenous, 18.5 MBq, 30 min		SUV	1.4 ± 0.1
C=CC(=O)N1CCCC(n2c(=O)c3ncccc3n(Cc3ccc(Oc4ccccc4)cc3)c2=O)C1 (stereo not drawn)	metabolic stability	male beagle dog, hepatocytes	1 µM, 1 h		compound remaining	43.5%
N#Cc1cccc(-c2ccc3ncc(-c4cc(F)cc(F)c4)c(N4CCC(NC(=O)OC5OC(C(=O)O)C(O)C(O)C5O)CC4)c3c2)c1O (stereo not drawn)		human, urine	oral, 20 mg, 72 h, 14C-paltusotine dosed		radioactivity recovered	0.17 %dose
CCCCN1C(=O)c2cccc3c(NCCCCCN4CCOCC4)ccc(c23)C1=O		chloroform			fluorescence lifetime	9.4 ns
COCC1CN(C2CCN(c3cc(OC)c(Nc4ncc(Br)c(Nc5ccc6c(c5P(C)(C)=O)OCCO6)n4)cc3C)CC2)C1		EGFR-mutant NSCLC patients, plasma	oral, 60 mg single dose, geometric mean		AUC(0-inf)	13400 ng·h/mL
N=C(N)NCCC[C@@H]1NC(=O)[C@H](CO)NC(=O)[C@@H](NC(=O)[C@H](CO)NC(=O)[C@H](CO)NC(=O)[C@H](Cc2c[nH]c3ccccc23)NC(=O)CNC(=O)[C@H](CO)NC(=O)[C@@H](N)Cc2c[nH]c3ccccc23)CSSC[C@@H](C(=O)NCC(=O)O)NC(=O)[C@H](CO)NC1=O		patients, plasma	intravenous, 5 mg/kg, thrice weekly, mean		AUC(0-inf)	379 ng·h/mL
CCCCN1C(=O)c2cccc3c(NCCN4CCOCC4)ccc(c23)C1=O		ethyl acetate			fluorescence lifetime	9.4 ns
Cc1nn(-c2nc3c(F)cc(F)cc3s2)c(O)c1C(c1ccc(C(F)(F)F)cc1)c1c(C)nn(-c2nc3c(F)cc(F)cc3s2)c1O		ICR mouse, plasma	oral, 50 mg/kg		apparent terminal volume of distribution (Vz/F, observed)	0.65 L/kg and 1.11 L/kg and 0.569 L/kg
C#CC(C)(C)C(=O)SCCOP1(=O)OCC2OC(n3cnc4c(N)ncnc43)CC2OP(=O)(OCCSC(=O)C(C)(C)C#C)OCC2OC(n3cnc4c(N)ncnc43)CC2O1 (stereo not drawn)		non-tumor-bearing mice, blood	intravenous, 1 mg/kg, toxicity study		RDW-CV	12.33 ± 0.1%
C=CC(=O)Nc1cc(Nc2nccc(-c3c[nH]c4ccccc34)n2)c(OC)cc1N(C)CCN(C)C	storage stability	human dried blood spot	2 h, on ice, HQC level		recovery	107%
CN([O-])C(=O)CN1CCNCCN(CC(=O)N(C)[O-])CC1.[89Zr+4]		mouse, pancreas	intravenous, 4 h		tracer uptake	0.12 %ID/g
CN(O)C(=O)CCC(=O)NCCCN(CCCCN(CCCNC(=O)CCC(=O)N(C)O)C(=O)CCC(=O)N(C)O)C(=O)CCC(=O)N(C)O.[89Zr]	radio-TLC	aqueous buffer	5 d, pH 8.5, 37 °C, 89Zr-labelled complex, with: DTPA 1000-fold excess		intact complex	99.4 ± 0.6%
CC[C@H](C)[C@H](NC(=O)[C@H](CCCCN)NC(C)=O)C(=O)N[C@@H](C)C(=O)N[C@@H](C)C(=O)N[C@@H](CC(C)C)C(=O)N[C@@H](CCCCN)C(=O)N[C@@H](CCC(=O)O)C(=O)N[C@@H](CCCCN)C(=O)N[C@H](C(=O)N[C@@H](C)C(=O)N[C@@H](C)C(=O)N[C@@H](CC(C)C)C(=O)N[C@@H](CCCCN)C(=O)N[C@@H](CCC(=O)O)C(=O)N[C@@H](CCCCN)C(=O)N[C@H](C(=O)N[C@H]1CSCc2ccc(cc2)CSC[C@@H](C(=O)NCC(=O)N[C@@H](Cc2c[nH]c3ccccc23)C(N)=O)NC(=O)[C@H](CCCCN)NC(=O)[C@H](CC(C)C)NC(=O)[C@H](C)NC1=O)[C@@H](C)CC)[C@@H](C)CC	tryptophan fluorescence titration	DOPC/DOPE/cholesterol 2:1:1 liposomes in PBS			ΔG of membrane partitioning	-7.17 kcal/mol
CC(C)C[C@H](NC(=O)[C@H](CCCCN)NC(=O)[C@H](CC(C)C)NC(=O)[C@H](CCCCN)NC(=O)C1CCC=CCCC(NC(=O)[C@H](CCCCN)NC(=O)[C@H](CC(C)C)NC(=O)[C@H](CCCCN)NC(=O)[C@@H](N)CC(C)C)C(=O)N[C@@H](CCCCN)C(=O)N2CCC[C@@H]2C(=O)NCC(=O)N[C@@H](CCCCN)C(=O)N1)C(N)=O (stereo partly drawn)	RP-HPLC C18		hydrophobicity		retention time	15.7 min
CNc1cc(N)c(C(N)=O)cn1		Han Wistar rats, male, plasma	oral, 30 mg/kg, 1.00 h		concentration at time	30.7 µM
CC(C)(O)c1ncc([S@](N)(=O)=NC(=O)Nc2c3c(cc4c2CCC4)CCC3)s1	measured: Cardiac disorders	healthy human volunteers	oral, dose not given, 14 days, multiple dose, all active arms		subjects with adverse events	3%
O=C(Nc1cnccc1-c1ccc([18F])nc1)c1ccnc(NC(=O)C2CC2)c1	PET imaging	FVB/NJ mice, both sexes, liver	intravenous, 60 min post-injection		SUV	8.04
CN(C)S(=O)(=O)c1ccc(S(=O)(=O)N2CCC(n3c(=O)[nH]c4ccccc43)CC2)cc1		mouse	dose not given, day 7	relative to: day 0	relative body weight	103% and 102% and 104% and 101%
C=CC(=O)Nc1cccc(Cn2ncc3cnc(Nc4cnn(CCOC)c4)nc32)c1		human hepatocytes			scaled intrinsic clearance	57.6 mL/min/kg
COC(=O)[C@@]1(C(C)C)C=C(C(=O)Nc2cccc(C(=O)Nc3ccc(Nc4nccc(-c5cccnc5)n4)c(C)c3)c2)C(=O)CC1		rat, plasma	10 µM, 30 min		compound remaining	94.7%
CN(CCNCc1cc(C(=O)[O-])ccc1[O-])CCNCc1cc(C(=O)[O-])ccc1[O-].[Cl-].[Fe+3].[K+].[K+]	measured: Fe(III)		1 weeks, pH 7.4, with: EDTA competitor		log conditional stability constant	20.5

Structure (SMILES)	test	system	setting	how to read	quantity	value
C=C(NC(=O)c1csc(-c2nc3c(cc2O)-c2nc(cs2)C(=O)NC(C(C)O)C(=O)NC(=C(C)OC)c2nc(cs2)C(=O)NC2c4nc(cs4)C(=O)NC(COC(=O)c4c5c6c(cccc6n4O)COC(=O)C(OC4CC(C)(O)C(N(C)C)C(C)O4)C2OC5)c2nc-3cs2)n1)C(N)=O (stereo not drawn)		Sprague-Dawley rat, both sexes, plasma	intravenous infusion, 18 mg/kg single dose		MRT(0-last)	2.1 h
O=C(O)C(Cc1c[nH]cn1)N1C(=O)c2ccc3c4ccc5c6c(ccc(c7ccc(c2c37)C1=O)c64)C(=O)N(CCN1CCCCC1)C5=O (stereo not drawn)	shake flask	aqueous buffer	pH 7		logD	2.41
CC(C)[C@H](NC(=O)[C@H](Cc1c[nH]c2ccccc12)NC(=O)[C@H](CCCNC(=N)N)NC(=O)[C@H](CCCNC(=N)N)NC(=O)[C@@H](NC(=O)[C@@H](NC(=O)[C@H](CCCNC(=N)N)NC(=O)[C@@H](NC(=O)[C@@H](NC(=O)[C@H](CCCNC(=N)N)NC(=O)[C@H](CCCNC(=N)N)NC(=O)[C@@H](NC(=O)[C@H](Cc1c[nH]c2ccccc12)NC(=O)[C@H](CCCNC(=N)N)NC(=O)[C@H](CCCNC(=N)N)NC(=O)[C@@H](NC(=O)[C@H](CCCNC(=N)N)NC(=O)[C@H](CCCNC(=N)N)NC(=O)[C@@H](NC(=O)[C@H](Cc1c[nH]c2ccccc12)NC(=O)[C@H](CCCNC(=N)N)NC(=O)[C@@H](N)CCCNC(=N)N)C(C)C)C(C)C)C(C)C)C(C)C)C(C)C)C(C)C)C(C)C)C(=O)N[C@@H](CCCNC(=N)N)C(=O)N[C@@H](CCCNC(=N)N)C(=O)O		CD1 mouse, urine	intravenous, 15 mg/kg, 6 h, [14C]-labelled compound		creatinine	8.7 mg/dL
CN1CCCNC(=O)c2cccc(c2)C(=O)NCCCN(C)CCCNc2cccc3c2C(=O)c2cccc(c2C3=O)NCCC1		mouse xenograft model	dose not given, day 2		body weight	25 g and 24 g and 26 g
O=C(NS(=O)(=O)c1cccs1)c1cc2ccccc2n1Cc1ccc(Br)c2ccccc12		Sprague-Dawley rat, male	intravenous, dose not given, 4 h		plasma concentration	22.6 ng/mL
C#CCOCCOCCOCCOCCn1cc(C(ONC(=O)/C=C/C(C)=C/C2(C)Oc3cc(N(C)C)ccc3C2=O)(c2ccc(C)cc2)c2ccc(C)cc2)nn1 (stereo not drawn)	HPLC	aqueous buffer, 20% acetonitrile	concentration not given, 246 min, pH 3	relative to: initial prodrug amount	release from prodrug hydrolysis	36.2%
Cc1cc(-c2ccc(C(=O)[C@@H]3CCCC[C@H]3C(=O)Nc3cnn4c3C(=O)NCC4)cc2)[nH]n1		human, urine	oral, 200 mg, 144-168 h	relative to: dose	recovery of radioactivity per interval	0.01%
Cc1nc(N)nc2c1C(=O)N[C@@H](c1ccc(F)cc1-c1cccc(O[11CH3])n1)C2	ex vivo biodistribution	mice, MDA-MB-231 subcutaneous xenograft, heart	60 min post-injection, baseline, vehicle pre-treatment		SUV	1.6 ± 0.1
CN1CCC[C@@H]1C(=O)N[C@@H](Cc1ccc(-c2ccccc2)cc1)B(O)O		NODscidIL2Rγnull mice, whole blood	oral, 50 mg/kg, 4 h, mean		blood concentration	440 ng/mL
COc1ccc(C(N)=O)cn1		Han Wistar rats, male, plasma	oral, 30 mg/kg, 8.00 h		concentration at time	0.114 µM
C/C(N)=N/C(=N\S(=O)(=O)c1ccc(C(F)(F)F)cc1)N1C[C@H](c2ccccc2)C(c2ccc(Cl)cc2)=N1		male C57BL/6 mouse, lung	intravenous, 5 mg/kg		half-life	2.7 h
CC(=O)N([O-])CCCCCNC(=O)CCC(=O)N([O-])CCCCCNC(=O)CCC(=O)N([O-])CCCCCN.[89Zr+4]		mouse plasma	3 d, 37 °C		intact complex	92.7 ± 3.4%
Cc1ccc(OCC(=O)N(Cc2cccs2)c2ccn[nH]2)cc1		dog plasma	750 ng/mL, 0.25 h, 37 °C, unit not given	relative to: time zero	remaining compound	116
C[C@@H]1O[C@@H](O[C@@H]2[C@@H](O)[C@H](O)[C@@H](CO)O[C@H]2c2c(O)cc(O)c3c(=O)cc(-c4ccc(O)cc4)oc23)[C@H](O)[C@H](O)[C@H]1O		Caco-2	100 µg/mL		efflux ratio	0.95
COc1cc(N2CCN(C(=O)C3CCCN3)CC2)ccc1Nc1ncc(Cl)c(Nc2ccccc2P(C)(C)=O)n1 (stereo not drawn)		nude mice, NCI-H3122 xenograft	oral, dose not given, day 7		body weight	23.3 g and 22.4 g and 22.5 g and 24.5 g
CN1CCC[C@]1(C)/C=C/S(=O)(=O)NC(=O)Nc1c2c(cc3c1CCC3)CC=C2		human, plasma	oral, 50 mg twice daily of parent drug, day 14, metabolite of dosed drug		Cmax at first steady-state dose	27200 ng/mL
CC[C@H](C)[C@H](NC(=O)CNC(=O)[C@H](C)NC(=O)[C@H](CC(=O)O)NC(=O)[C@H](CO)NC(=O)[C@H](C)NC(=O)[C@H](CC(C)C)NC(=O)[C@H](CCCCN)NC(=O)[C@H](CCCCN)NC(=O)[C@H](CCSC)NC(=O)[C@H](CC(N)=O)NC(=O)[C@H](Cc1ccccc1)NC(=O)[C@H](CC(=O)O)NC(=O)[C@@H](N)CCSC)C(=O)N[C@@H](Cc1c[nH]c2ccccc12)C(=O)N[C@@H](Cc1ccccc1)C(=O)N[C@H](C(=O)N[C@@H](CCCNC(=N)N)C(=O)N[C@@H](C)C(=O)N[C@H](C(=O)N[C@@H](CCC(N)=O)C(=O)N[C@@H](Cc1ccccc1)C(=O)N[C@H](C(=O)N[C@@H](CCC(=O)O)C(=O)N[C@@H](CCC(=O)O)C(=O)N[C@@H](CCCCN)C(=O)N[C@@H](Cc1ccccc1)C(=O)NCC(=O)N[C@@H](CCC(N)=O)C(=O)N[C@@H](C)C(N)=O)[C@@H](C)O)C(C)C)[C@@H](C)O	circular dichroism titration	25% DOPS/75% DOPC liposomes	50 µM, pH 7.4, 20 °C		ΔG of binding	-6.8 kcal/mol
COc1ccc(Cn2c(=O)n(O)c(=O)c3ccccc32)cc1	shake flask	aqueous buffer	pH 7.4		logD	1.5
COc1ccc2c(c1)CCn1c[n+]3c(c1-2)-c1ccc(OC)cc1CC3		female NSG mice, blood	6 mg/kg, day 20, 5 days per week		Eosinophils	7.32 ± 5.77%
O=C(Nc1cnccc1-c1ccc([18F])cc1)c1ccnc(NC(=O)C2CC2)c1	ex vivo biodistribution, gamma counting	GSK-3β overexpressing transgenic mouse, late stage, caudate nucleus	intravenous, 1.26 MBq/animal, 120 min post-injection		mean SUV	0.12
Cc1ncsc1-c1ccc(CNC(=O)[C@@H]2C[C@@H](O)CN2C(=O)[C@@H](NC(=O)COCC(C)(COCCOCCOCCNC(=O)C[C@@H]2N=C(c3ccc(Cl)cc3)c3c(sc(C)c3C)-n3c(C)nnc32)COCCOCCOCCNC(=O)C[C@@H]2N=C(c3ccc(Cl)cc3)c3c(sc(C)c3C)-n3c(C)nnc32)C(C)(C)C)cc1		male C57BL/6 mice, plasma	subcutaneous, 5 mg/kg, 0.083 h		plasma concentration	478 ng/mL and 245 ng/mL and 235 ng/mL

For quick reference, copied from above:
Structure (SMILES)	test	system	setting	how to read	quantity	value
O=C(NS(=O)(=O)c1cccs1)c1cc2ccccc2n1Cc1ccc(Br)c2ccccc12		Sprague-Dawley rat, male	intravenous, dose not given, 4 h		plasma concentration	22.6 ng/mL
C#CCOCCOCCOCCOCCn1cc(C(ONC(=O)/C=C/C(C)=C/C2(C)Oc3cc(N(C)C)ccc3C2=O)(c2ccc(C)cc2)c2ccc(C)cc2)nn1 (stereo not drawn)	HPLC	aqueous buffer, 20% acetonitrile	concentration not given, 246 min, pH 3	relative to: initial prodrug amount	release from prodrug hydrolysis	36.2%
Cc1cc(-c2ccc(C(=O)[C@@H]3CCCC[C@H]3C(=O)Nc3cnn4c3C(=O)NCC4)cc2)[nH]n1		human, urine	oral, 200 mg, 144-168 h	relative to: dose	recovery of radioactivity per interval	0.01%
